Assay results gathered from unrelated publications.
Compare with care: the assays were run in different laboratories. Several values in a cell are separate wells, animals, samples, runs or records. Numbers after ± are the reported error.

Compound	cell line	assay	setting	how to read	measurement	result
Cn1cc(-c2ccc(-c3cncc(Cl)c3N3CCC4(CCNC4=O)CC3)cc2)cn1	COLO 205	gene expression, microarray, item: HMOX1 mRNA	concentration not given, 2 h	baseline: untreated cells	log2 fold change	2.17
COc1cc2ncnc(Nc3ccc(Oc4ccccc4)cc3C)c2cc1OC.O=C(O)C(F)(F)F	NCI-H2087 (BRAF L597V)		3 µM, added: trametinib 0 nM		fractional effect	22%
O=C(NO)c1cccc(C(=O)NCCc2ccccc2)c1	HBL-1		0.1 µM, 120 h		viability	122%
CCCCc1nc2cc(/C=C/C(=O)NO)ccc2n1CCN(CC)CC	BT-12	cell viability, MTT	10 µM, 72 h		inhibition	91.3%
O=C(O)c1ccnc(C(=O)O)c1	HBL-1		1 µM, 120 h		viability	103%
COc1ccc(C[C@H](NC(=O)[C@H](C)NC(=O)CN2CCOCC2)C(=O)N[C@@H](Cc2ccccc2)C(=O)C2(C)CO2)cc1 (stereo in doubt)	BT-12	cell viability, MTT	10 µM, 72 h		inhibition	95.1%
COc1cc2c(NC3CCN(C)CC3)nc(N3CCCN(C)CC3)nc2cc1OCCCN(C)C	HBL-1		0.5 µM, 120 h		viability	102%
Nc1[nH]nc2nnc(-c3c(-c4ccccc4)nn4ccccc34)cc12	HeLa expressing Ub(G76V)-GFP	Ub(G76V)-GFP degradation, cycloheximide chase	12 µM		inhibition	20%
O=C(CCCCCCC(=O)Nc1ccc(I)cc1)NO	HBL-1		0.5 µM, 120 h		viability	4.17%
COc1ccc(NC(=S)N/N=C/c2cccc3cc4ccccc4nc23)cc1	HeLa	PI flow cytometry	IC50, 48 h, added: N-acetylcysteine		G1 phase cells	45.5 ± 0.1%
CC(C)n1nc(-c2cc3cc(O)ccc3[nH]2)c2c(N)ncnc21	hiPSC cardiomyocytes	CellTiter-Glo	concentration not given, 24 h	baseline: vehicle	ATP level	87.8%
O=C([C@@H](Cc1cccc(C(F)(F)F)c1)NS(=O)(=O)c1cc(F)c2c(c1)CCNC2)N1CCCC1	HBL-1		1 µM, 120 h		viability	96.8%
COc1cnc2cccc(N3CCc4c(cc(Cn5ccnc5C)cc4-c4cn(C)nc4C(F)(F)F)C3=O)c2c1	LK-2	cell growth, inhibitor	120 h		EC50	> 30 µM
CCCCCCCCCCCCCCCC[N+](C)(C)CCN(Cc1ccc(OC)cc1)c1ncccn1	BT-12	cell viability, MTT	10 µM, 72 h		inhibition	95.5%
Cc1cc(/N=N/c2ccc(S(=O)(=O)Nc3ccccn3)cc2)c(N)cc1O	HBL-1		0.1 µM, 120 h		viability	125%
CC1(C)CCC(CN2CCN(c3ccc(C(=O)NS(=O)(=O)c4ccc(NCC5CCOCC5)c([N+](=O)[O-])c4)c(Oc4cnc5[nH]ccc5c4)c3)CC2)=C(c2ccc(Cl)cc2)C1	THP-1	annexin V/PI flow cytometry, item: annexin V-/PI+	1.6 µM, 24 h		necrotic cells	0.1%
CC1(C)CN(CCCCC(=O)N[C@@H](CCC(=O)O)C(=O)N[C@@H](CCC(=O)O)C(=O)N[C@H](CCCCNC(=O)CCCCCCC(=O)NCCCC[C@H](NC(=O)N[C@@H](CCC(=O)O)C(=O)O)C(=O)O)C(=O)O)CC[N]2CC(C)(C)[S][Tc]2(=[O])[S]1 (some centres unmarked) [technetium-99m labelled]	LNCaP		25 nM, 1 h, 37 °C		surface-bound activity	3.7 ± 1.11 %AD/mg protein
CCCNC(=O)[C@H]1O[C@@H]1C(=O)N[C@H](C(=O)N1CCC[C@H]1C(=O)OC)[C@@H](C)CC	MDA-MB-231	cell viability, MTT	concentration not given, 72 h, irradiated 15 min up to 470 nm		EC50	33 ± 8.7 µM
O=C1NC(=O)C(c2c[nH]c3ccccc23)=C1c1c[nH]c2ccccc12	HeLa expressing Ub(G76V)-GFP	Ub(G76V)-GFP degradation, inhibitor, cycloheximide chase	12 µM		inhibition	-9%
CCS(=O)(=O)c1nc(C2CC2)cc(C(F)(F)F)n1	HeLa Kyoto	RelA nuclear import, high content imaging	5.01 µM, 3 h, added: 1 µM PMA, 60 min		cells with nuclear RelA	51.1% and 64.9%
CCCCc1c(-c2ccc(O)cc2)[nH]c2nccnc12	HeLa expressing Ub(G76V)-GFP	Ub(G76V)-GFP degradation, cycloheximide chase	12 µM		inhibition	3%
N=C1NC(=O)/C(=C/c2ccc(O)cc2)S1	HBL-1		0.1 µM, 120 h		viability	111%
COc1cccc2c1C(=O)c1c(O)c3c(c(O)c1C2=O)C[C@@](O)(C(=O)CO)C[C@@H]3O[C@H]1C[C@H](N)[C@H](O)[C@H](C)O1	HepG2	CellTiter-Glo, item: cellular ATP	24 h, distribution mode 1		point of departure	0.0174 µM
